Measurements of several laboratories.
Lines come from different studies, so protocols differ. Values joined by “and” are separate records of one study, mostly repeats; a detail may differ. ± gives the spread as reported.
SSTR1: Somatostatin receptor type 1 (SSTR1, Homo sapiens, UniProt P30872)
UniProt P30872, sequence (whole entry, looked up): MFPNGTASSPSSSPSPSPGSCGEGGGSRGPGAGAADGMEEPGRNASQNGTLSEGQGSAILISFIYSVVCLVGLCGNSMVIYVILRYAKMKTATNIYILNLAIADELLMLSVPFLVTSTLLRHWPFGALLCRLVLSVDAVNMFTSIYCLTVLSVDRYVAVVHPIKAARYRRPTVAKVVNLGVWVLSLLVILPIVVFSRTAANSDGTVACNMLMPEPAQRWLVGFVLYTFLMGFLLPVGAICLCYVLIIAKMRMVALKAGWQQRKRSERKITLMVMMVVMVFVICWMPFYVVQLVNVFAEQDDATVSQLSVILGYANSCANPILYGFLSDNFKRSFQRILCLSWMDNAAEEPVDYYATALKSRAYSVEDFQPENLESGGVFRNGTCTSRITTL
Uridine nucleoside ribohydrolase: Uridine nucleoside ribohydrolase (Trichomonas vaginalis, UniProt A2FTT0)
TNKS2: Poly [ADP-ribose] polymerase tankyrase-2 (TNKS2, Homo sapiens, UniProt Q9H2K2)
UniProt Q9H2K2, sequence (whole entry, looked up): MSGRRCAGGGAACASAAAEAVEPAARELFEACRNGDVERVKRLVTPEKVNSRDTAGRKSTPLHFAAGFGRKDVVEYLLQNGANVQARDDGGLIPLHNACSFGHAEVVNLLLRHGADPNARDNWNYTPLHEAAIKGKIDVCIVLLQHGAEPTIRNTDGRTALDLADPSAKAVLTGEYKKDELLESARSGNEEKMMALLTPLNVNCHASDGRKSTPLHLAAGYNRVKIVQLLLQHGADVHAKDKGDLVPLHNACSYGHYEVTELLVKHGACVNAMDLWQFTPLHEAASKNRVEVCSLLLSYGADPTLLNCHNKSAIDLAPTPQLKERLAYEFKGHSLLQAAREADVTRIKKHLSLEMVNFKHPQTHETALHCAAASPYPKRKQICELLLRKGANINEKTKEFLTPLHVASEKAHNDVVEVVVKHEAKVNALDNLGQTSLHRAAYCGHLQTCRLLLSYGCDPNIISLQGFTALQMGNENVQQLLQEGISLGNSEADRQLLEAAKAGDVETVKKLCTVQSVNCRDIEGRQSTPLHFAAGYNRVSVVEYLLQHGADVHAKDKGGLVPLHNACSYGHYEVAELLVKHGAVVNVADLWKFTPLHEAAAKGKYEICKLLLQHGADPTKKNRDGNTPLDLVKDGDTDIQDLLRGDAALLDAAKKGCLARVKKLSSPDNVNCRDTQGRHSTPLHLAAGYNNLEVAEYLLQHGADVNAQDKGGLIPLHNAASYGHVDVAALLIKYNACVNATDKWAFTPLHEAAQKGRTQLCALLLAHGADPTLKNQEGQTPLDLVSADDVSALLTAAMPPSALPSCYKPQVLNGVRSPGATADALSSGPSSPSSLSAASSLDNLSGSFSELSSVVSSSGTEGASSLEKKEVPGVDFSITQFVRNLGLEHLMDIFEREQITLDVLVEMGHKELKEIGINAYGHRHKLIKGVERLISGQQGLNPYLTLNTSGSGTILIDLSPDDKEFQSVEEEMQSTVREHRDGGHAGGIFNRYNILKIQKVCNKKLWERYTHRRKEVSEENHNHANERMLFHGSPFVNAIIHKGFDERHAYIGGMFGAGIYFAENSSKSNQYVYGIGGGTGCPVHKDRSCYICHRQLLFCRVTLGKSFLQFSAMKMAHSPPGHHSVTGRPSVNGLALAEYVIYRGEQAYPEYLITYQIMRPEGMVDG
HDAC9: Histone deacetylase 9 (HDAC9, Homo sapiens, UniProt Q9UKV0)
UniProt Q9UKV0, sequence (whole entry, looked up): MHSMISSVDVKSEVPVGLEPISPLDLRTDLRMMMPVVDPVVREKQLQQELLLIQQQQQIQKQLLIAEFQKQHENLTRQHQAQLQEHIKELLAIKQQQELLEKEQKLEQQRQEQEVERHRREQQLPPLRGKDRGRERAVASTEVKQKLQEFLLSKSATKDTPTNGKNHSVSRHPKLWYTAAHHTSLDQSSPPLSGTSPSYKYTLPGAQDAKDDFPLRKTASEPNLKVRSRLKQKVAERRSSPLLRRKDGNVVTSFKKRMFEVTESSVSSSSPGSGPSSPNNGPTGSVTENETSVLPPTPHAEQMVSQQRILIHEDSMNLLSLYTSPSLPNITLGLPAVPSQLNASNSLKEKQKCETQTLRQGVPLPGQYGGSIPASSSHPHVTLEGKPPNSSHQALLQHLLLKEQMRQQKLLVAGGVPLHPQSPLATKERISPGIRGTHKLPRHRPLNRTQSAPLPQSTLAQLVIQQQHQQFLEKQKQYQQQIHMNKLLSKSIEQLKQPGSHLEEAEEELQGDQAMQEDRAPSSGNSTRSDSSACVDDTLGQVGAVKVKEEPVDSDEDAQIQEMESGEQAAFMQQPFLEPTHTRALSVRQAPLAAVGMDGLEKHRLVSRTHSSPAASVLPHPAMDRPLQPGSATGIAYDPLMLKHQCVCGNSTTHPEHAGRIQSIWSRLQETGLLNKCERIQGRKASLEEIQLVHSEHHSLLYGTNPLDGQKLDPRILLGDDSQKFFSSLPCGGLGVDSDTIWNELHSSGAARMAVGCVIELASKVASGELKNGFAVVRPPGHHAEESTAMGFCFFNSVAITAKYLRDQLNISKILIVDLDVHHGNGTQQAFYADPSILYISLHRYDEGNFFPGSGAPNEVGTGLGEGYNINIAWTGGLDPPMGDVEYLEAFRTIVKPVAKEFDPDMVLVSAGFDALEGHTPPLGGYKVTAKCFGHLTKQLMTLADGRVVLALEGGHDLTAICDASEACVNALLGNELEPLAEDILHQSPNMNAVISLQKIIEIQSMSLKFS
SPHK2: Sphingosine kinase 2 (SPHK2, Homo sapiens, UniProt Q9NRA0)
NPY2R: Neuropeptide Y receptor type 2 (NPY2R, Homo sapiens, UniProt P49146)
UniProt P49146, sequence (whole entry, looked up): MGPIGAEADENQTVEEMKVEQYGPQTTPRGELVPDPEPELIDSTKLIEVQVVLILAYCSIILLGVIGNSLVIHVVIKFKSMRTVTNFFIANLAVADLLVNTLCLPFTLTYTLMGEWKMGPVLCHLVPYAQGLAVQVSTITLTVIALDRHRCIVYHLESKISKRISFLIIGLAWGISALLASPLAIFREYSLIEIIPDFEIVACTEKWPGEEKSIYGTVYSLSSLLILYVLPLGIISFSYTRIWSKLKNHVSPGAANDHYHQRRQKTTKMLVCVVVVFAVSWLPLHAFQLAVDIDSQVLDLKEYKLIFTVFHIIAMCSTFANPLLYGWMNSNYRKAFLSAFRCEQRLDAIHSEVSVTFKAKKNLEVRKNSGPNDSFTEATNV
MMP2: 72 kDa type IV collagenase (MMP2, Homo sapiens, UniProt P08253)
HTR1D: 5-hydroxytryptamine receptor 1D (HTR1D, Homo sapiens, UniProt P28221)
UniProt P28221, sequence (whole entry, looked up): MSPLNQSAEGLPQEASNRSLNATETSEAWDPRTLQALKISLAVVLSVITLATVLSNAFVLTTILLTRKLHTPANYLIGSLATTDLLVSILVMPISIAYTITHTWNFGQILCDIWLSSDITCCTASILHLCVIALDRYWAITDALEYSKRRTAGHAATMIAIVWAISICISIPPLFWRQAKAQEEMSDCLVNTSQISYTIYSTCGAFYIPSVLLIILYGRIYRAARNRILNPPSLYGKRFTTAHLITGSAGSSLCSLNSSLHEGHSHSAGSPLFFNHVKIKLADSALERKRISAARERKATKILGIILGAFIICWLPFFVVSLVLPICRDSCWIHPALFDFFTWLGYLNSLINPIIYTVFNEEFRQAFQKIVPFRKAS
Alpha-amylase: Alpha-amylase (Bos taurus, UniProt Q3MHH8)
UniProt Q93009, sequence (whole entry, unmodified, looked up): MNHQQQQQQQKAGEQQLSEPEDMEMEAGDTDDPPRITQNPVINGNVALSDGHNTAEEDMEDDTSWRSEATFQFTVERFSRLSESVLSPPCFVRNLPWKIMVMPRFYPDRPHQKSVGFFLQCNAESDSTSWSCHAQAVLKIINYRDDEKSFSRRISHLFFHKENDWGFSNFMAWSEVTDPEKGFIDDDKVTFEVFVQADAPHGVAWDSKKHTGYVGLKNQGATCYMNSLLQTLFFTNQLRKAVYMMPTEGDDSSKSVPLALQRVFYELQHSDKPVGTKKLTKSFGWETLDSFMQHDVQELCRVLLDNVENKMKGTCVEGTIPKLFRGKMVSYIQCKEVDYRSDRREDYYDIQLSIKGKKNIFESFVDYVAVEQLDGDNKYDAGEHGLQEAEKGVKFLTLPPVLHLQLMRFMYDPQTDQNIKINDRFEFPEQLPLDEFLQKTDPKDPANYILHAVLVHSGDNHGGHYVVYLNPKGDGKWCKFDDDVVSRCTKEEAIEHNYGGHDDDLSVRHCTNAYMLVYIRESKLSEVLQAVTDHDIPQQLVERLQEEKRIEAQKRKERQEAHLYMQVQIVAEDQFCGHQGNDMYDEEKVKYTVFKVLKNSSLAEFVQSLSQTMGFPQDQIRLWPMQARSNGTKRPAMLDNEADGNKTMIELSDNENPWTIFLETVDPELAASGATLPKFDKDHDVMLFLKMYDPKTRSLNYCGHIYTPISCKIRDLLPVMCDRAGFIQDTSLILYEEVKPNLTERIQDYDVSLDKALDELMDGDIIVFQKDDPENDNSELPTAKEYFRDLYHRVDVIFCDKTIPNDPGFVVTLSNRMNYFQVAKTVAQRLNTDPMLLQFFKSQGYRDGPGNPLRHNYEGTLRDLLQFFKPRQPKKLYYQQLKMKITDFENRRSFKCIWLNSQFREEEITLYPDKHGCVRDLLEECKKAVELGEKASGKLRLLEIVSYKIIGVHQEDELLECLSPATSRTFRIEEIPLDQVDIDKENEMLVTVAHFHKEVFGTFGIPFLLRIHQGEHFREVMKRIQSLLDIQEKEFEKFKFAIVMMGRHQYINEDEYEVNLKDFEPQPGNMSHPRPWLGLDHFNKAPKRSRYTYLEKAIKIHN
UniProt P25106, sequence (whole entry, looked up): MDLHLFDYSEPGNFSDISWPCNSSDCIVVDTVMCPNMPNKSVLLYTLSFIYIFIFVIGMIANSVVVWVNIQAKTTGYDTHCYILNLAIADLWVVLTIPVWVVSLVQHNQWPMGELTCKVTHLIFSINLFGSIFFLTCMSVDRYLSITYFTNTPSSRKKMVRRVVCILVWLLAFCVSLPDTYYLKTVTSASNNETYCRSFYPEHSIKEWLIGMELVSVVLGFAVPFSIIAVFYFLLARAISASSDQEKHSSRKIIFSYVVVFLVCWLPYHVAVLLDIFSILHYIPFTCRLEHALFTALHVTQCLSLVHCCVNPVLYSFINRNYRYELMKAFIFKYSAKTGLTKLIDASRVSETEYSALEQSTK

| SMILES | target or system | test | test system | conditions | how to read | measurement | result |
| --- | --- | --- | --- | --- | --- | --- | --- |
| O=C1c2sc(-c3ccc(N4CCC(F)C4)nc3F)nc2CCN1c1cccnc1 (centres unmarked) | SSTR1 | ligand displacement, radioligand | – | 1 µM | – | inhibition | -1% |
| COc1ccc(CN2CC3CCCCN3C2=O)cc1 (centres unmarked) | Uridine nucleoside ribohydrolase | inhibitor, 19F NMR jump dilution | – | 20 µM, 1-fold dilution | – | inhibition | 100% |
| C/C=C/C(=O)Nc1ccc2nc(NCCCCCN(C)C)nc(NCCCCCCN(C)C)c2c1 | Histone-lysine N-methyltransferase PRDM9 (PRDM9, Homo sapiens, UniProt Q9NQV7) | enzyme activity, inhibitor, radiometric | – | 50 µM | – | inhibition | 80% |
| CN1CCN(CC(=O)c2ccccc2)C1=O | Uridine nucleoside ribohydrolase | 19F NMR | – | 50 µM | – | inhibition | 44.5% |
| O=C(CCCc1ccc2c(c1)OCCO2)NCCNC(=O)Cn1c(=O)[nH]c(=O)c2ccccc21 | TNKS2 | enzyme activity, inhibitor | – | 50 nM | – | inhibition | 18% |
| Cn1cc(-c2ccc(C(N)=O)cc2)cn1 | Uridine nucleoside ribohydrolase | 19F NMR | – | 50 µM, added: 0.01% Triton X-100 | – | inhibition | 100% |
| CC(=O)C12NC(C)(C)CC1(C)C(=O)C1=C2c2c(c3c4n2C(C)(C)CC2=C4C4(CC(C)(C)NC(C)(C4)C2=O)CC3(C)C)C(=O)C(C)(C)N1 (single isomer, unassigned; (-)) | TRPM3 (Homo sapiens, UniProt Q9HCF6) | antagonist | HEK293T | 10 µM | – | inhibition | 23.76 ± 0.03% |
| CS(=O)(=O)Nc1cccc(-c2csc3cnc(Nc4ccc(N5CCN(CCCCCOc6cccc7c6C(=O)N(C6CCC(=O)NC6=O)C7=O)CC5)cc4)nc23)c1 (centres unmarked) | Mixed lineage kinase domain-like protein (MLKL, Homo sapiens, UniProt Q8NB16) | probe labelling, inhibitor, KiNativ chemoproteomics | MOLT-4 | 1 µM | – | inhibition | -15.7% |
| CC(C)(C)c1ccccc1OS(=O)(=O)Oc1cccc(C(=O)NO)c1 | HDAC9 | enzyme activity, inhibitor, fluorescence | – | 10 µM | – | inhibition | 15% |
| CN(Cc1ccc(/C=C/C(=O)NO)cc1)CC12CC3CC(CC(C3)C1)C2 | human NTS1 receptor | agonist radioligand binding | – | 0.05 µM | – | inhibition | -5% |
| COc1cc(-n2cc3cc(F)cc(C(N)=O)c3n2)cc(Cl)c1C1CC(O)(CCO)Cc2ccccc21 (centres unmarked) | Protein mono-ADP-ribosyltransferase PARP3 (PARP3, Homo sapiens, UniProt Q9Y6F1) | enzyme activity, inhibitor | – | 10 µM | – | inhibition | 4.94% |
| CC(=O)Nc1ccccc1-c1ccc(O)cc1 | Uridine nucleoside ribohydrolase | 19F NMR | – | 50 µM, added: 0.01% Triton X-100 | – | inhibition | 92.8% |
| Cc1cccc(O[C@H]2CCC[C@@H](C(C)CNCc3ccncc3)C2)c1 (relative stereo) | SPHK2 | enzyme activity, inhibitor | – | 1 µM | – | inhibition | 1% |
| C=CC(=O)Nc1cccc(-c2cnc3[nH]cc(C(=O)NC(C)(C)C)c3n2)c1 | SPHK2 | enzyme activity, inhibitor | – | 0.1 µM | – | inhibition | 3% |
| CO[C@@H](C)c1c(NC(=O)Nc2cnc(-n3nccn3)c(C(F)(F)F)c2)cnc2sc(C)nc12 | NPY2R | ligand displacement, radioligand | – | 10 µM | – | inhibition | 2.7% |
| COC(=O)c1cccc2c1NC(=O)C2(O)CC(NC(=O)c1cc2[nH]ncc2cn1)C(=O)O (centres unmarked) | D-3-phosphoglycerate dehydrogenase (PHGDH, Homo sapiens, UniProt O43175) | enzyme activity, inhibitor | – | 25 µM | – | inhibition | 26.1% |
| CC[C@H](C)[C@@H]1NC(=O)[C@H](Cc2ccccc2C(F)(F)F)NC(=O)CCSCc2cccc(n2)CSCCCNC(=O)[C@H](CCCCCC(=O)NO)NC1=O | HDAC9 | enzyme activity, inhibitor, fluorogenic | – | 30 µM | – | inhibition | 20% |
| C[Si](C)(C)C[C@H](CN)CC(=O)O | SSTR1 | ligand displacement, radioligand | – | 250 µM | – | inhibition | 0% |
| O=C(CNc1nc(NNC(=O)c2ccc(Nc3nc(Nc4ccc(C(=O)NNc5nc(NCC(=O)NO)nc(N6CCCCC6)n5)cc4)nc(Nc4ccc(C(=O)NNc5nc(NCC(=O)NO)nc(N6CCCCC6)n5)cc4)n3)cc2)nc(N2CCCCC2)n1)NO | MMP2 | enzyme activity, inhibitor, fluorescence | – | 0.001 µg/mL | – | inhibition | 70% |
| O=C1CO[C@H](CNC(=O)C2(c3ccc(Cl)cc3)CC2)CN1C1Cc2ccccc2C1 | Atypical chemokine receptor 3 (ACKR3, Homo sapiens, UniProt P25106) | β-arrestin recruitment, antagonist | – | 1 µM | – | inhibition | 9% |
| Cc1[nH]nc2c1N=C(c1ccccc1Cl)c1cnc(N3CCOCC3)cc1N2 | NPY2R | cell-free assay | – | 10 µM | – | inhibition | 5% |
| CN(C)C/C=C/C(=O)Nc1ccc2nc(NCCCCCN(C)C)nc(NCCCCCCN(C)C)c2c1 | N-lysine methyltransferase SMYD2 (SMYD2, Homo sapiens, UniProt Q9NRG4) | enzyme activity, inhibitor, radiometric | – | 50 µM | – | inhibition | 77% |

| SMILES | target or system | test | test system | conditions | how to read | measurement | result |
| --- | --- | --- | --- | --- | --- | --- | --- |
| COc1ccc2nc(C)ccc2c1Nc1sn(C)c(=O)c1C#N | TNKS2 | enzyme activity, inhibitor | – | 10 µM | – | inhibition | 1% |
| O=C(CN1CCO[C@@H](COc2cccc(Cl)c2)C1)N1CCc2ccccc21 | HTR1D | radioligand binding | – | concentration not given, added: [3H]5-CT | – | inhibition | 20.9% |
| Cc1cc(Cl)cc(-c2ccnc3cc(CN4C(=O)C5C(C4=O)C5(C)C)sc23)c1C[C@@H]1CNCCO1 (some centres unmarked) | Ubiquitin carboxyl-terminal hydrolase 7 (USP7, Homo sapiens, UniProt Q93009, V517F) | enzyme activity, inhibitor | – | 0.05 µM | – | inhibition | 34.4% and 25.8% |
| Brc1ccccc1-c1nnc(CSc2nnnn2-c2ccccc2)o1 | HTR1D | ligand displacement, radioligand | – | 10 µM | – | inhibition | -5% |
| O=C(CNc1nc(Cl)nc(NNC(=O)c2ccc(Nc3nc(Nc4ccc(C(=O)NNc5nc(Cl)nc(NCC(=O)NO)n5)cc4)nc(Nc4ccc(C(=O)NNc5nc(Cl)nc(NCC(=O)NO)n5)cc4)n3)cc2)n1)NO | MMP2 | enzyme activity, inhibitor, fluorescence | – | 0.0001 µg/mL | – | inhibition | 28% |
| CC1=NN(c2ccccc2F)C(=O)/C1=N\Nc1ccc(S(N)(=O)=O)cc1 | Alpha-amylase | enzyme activity, inhibitor, glucose oxidase | – | 200 µg/mL, added: dextrin | – | inhibition | 16.1% |
| CCn1cc(-c2cccc(C(F)(F)F)c2)c2sc(C(=N)NC3CCS(=O)(=O)CC3)cc2c1=O | Bromodomain-containing protein 9 (BRD9, Homo sapiens, UniProt Q9H8M2) | protein-protein interaction, inhibitor, AlphaScreen | – | 1 µM | – | inhibition | 99% |
| NC(=O)C[C@H]1CCc2sc3ncnc(O[C@H]4CC[C@H](N5CCOCC5)CC4)c3c21 | Lymphokine-activated killer T-cell-originated protein kinase (PBK, Homo sapiens, UniProt Q96KB5) | enzyme activity, inhibitor | – | 10 µM | – | inhibition | 6% |
| Cc1cc(C(=O)NCCNC(=O)c2cccc(COc3ccccc3C(N)=O)c2)n[nH]1 | TNKS2 | enzyme activity, inhibitor | – | 0.104 µM | – | inhibition | 100% |
| CCC(=O)N(C)c1ccc(Cl)c(Cl)c1 | NPY2R | ligand displacement, radioligand | – | 10 µM | – | inhibition | < 10% |
| Cc1nc2c(F)cc(-c3nc(Nc4ccc(CNC(=O)CCCCCCC(=O)NO)cc4)ncc3F)cc2n1C(C)C | CaMKIγ(h) human kinase | enzyme activity | – | 1 µM | – | inhibition | 72% |
| C[Si]1(C[C@H](CN)CC(=O)O)CCCC1 | NPY2R | ligand displacement, radioligand | – | 70 µM | – | inhibition | 7% |
| CC1=NN(c2cccc(F)c2)C(=O)/C1=N\Nc1ccc(S(N)(=O)=O)cc1 | Alpha-amylase | enzyme activity, inhibitor, glucose oxidase | – | 500 µg/mL, added: dextrin | – | inhibition | 20.9% |
| CCn1cc(C(=O)O)c(=O)c2c(N)c(F)c(NC3CCCCC3)cc21 | Tau-tubulin kinase 2 (TTBK2, Homo sapiens, UniProt Q6IQ55) | kinase activity | – | 0.1 µM, added: ATP at Km | – | inhibition | 12.6% |
| Cc1cccnc1-c1cccc(C#N)c1 | Uridine nucleoside ribohydrolase | 19F NMR | – | 50 µM, added: 0.01% Triton X-100 | – | inhibition | 100% |
| Cc1ccc(SCCOCCN2CC(C)OC(C)C2)cc1.Cl (centres unmarked) | Trypanosoma cruzi | reporter mRNA translation, inhibitor, refers to: Renilla luciferase mRNA | cell-free extract | concentration not given, test 2 | reference: positive over negative control | translation activity | 105% and 121% |
| Cc1cccnc1-c1ccc(C(N)=O)cc1 | Uridine nucleoside ribohydrolase | 19F NMR | – | 100 µM | – | inhibition | 100% |
| CC1CCC(C(C)C)C(OC(=O)Cn2c(-c3ccc(Br)cc3)[n+](C)c3ccccc32)C1.[Cl-] (centres unmarked) | Trypanosoma cruzi | reporter mRNA translation, inhibitor, refers to: Renilla luciferase mRNA | cell-free extract | concentration not given, test 2 | reference: positive over negative control | translation activity | 80.6% and 87.3% |
| CCc1ccc(N2CCC(O)C2)cc1 (centres unmarked) | Uridine nucleoside ribohydrolase | 19F NMR | – | 50 µM | – | inhibition | 12% |
| O=C(CC1CC2CCC1C2)NCCNC(=O)Cn1c(=O)[nH]c(=O)c2ccccc21 (centres unmarked) | TNKS2 | enzyme activity, inhibitor | – | 50 nM | – | inhibition | 17% |
| CC(=O)Nc1ccc(F)cc1-c1ccncc1 | Uridine nucleoside ribohydrolase | 19F NMR | – | 50 µM | – | inhibition | 45.8% |
| O=C1c2sc(-c3ccc(N4CCC(CO)CC4)nc3F)nc2CCN1c1cccnc1 | 5-hydroxytryptamine receptor 2A (HTR2A, Homo sapiens, UniProt P28223) | ligand displacement, radioligand | – | 1 µM | – | inhibition | 5% |

Some of these lines once more:
| SMILES | target or system | test | test system | conditions | how to read | measurement | result |
| --- | --- | --- | --- | --- | --- | --- | --- |
| O=C(CN1CCO[C@@H](COc2cccc(Cl)c2)C1)N1CCc2ccccc21 | HTR1D | radioligand binding | – | concentration not given, added: [3H]5-CT | – | inhibition | 20.9% |
| Cc1cc(Cl)cc(-c2ccnc3cc(CN4C(=O)C5C(C4=O)C5(C)C)sc23)c1C[C@@H]1CNCCO1 (some centres unmarked) | Ubiquitin carboxyl-terminal hydrolase 7 (USP7, Homo sapiens, UniProt Q93009, V517F) | enzyme activity, inhibitor | – | 0.05 µM | – | inhibition | 34.4% and 25.8% |
| Brc1ccccc1-c1nnc(CSc2nnnn2-c2ccccc2)o1 | HTR1D | ligand displacement, radioligand | – | 10 µM | – | inhibition | -5% |
| O=C(CNc1nc(Cl)nc(NNC(=O)c2ccc(Nc3nc(Nc4ccc(C(=O)NNc5nc(Cl)nc(NCC(=O)NO)n5)cc4)nc(Nc4ccc(C(=O)NNc5nc(Cl)nc(NCC(=O)NO)n5)cc4)n3)cc2)n1)NO | MMP2 | enzyme activity, inhibitor, fluorescence | – | 0.0001 µg/mL | – | inhibition | 28% |
